Experimental data gathered from unrelated publications.
Compare with care: the assays were run in different laboratories. ± gives the spread as reported.
Technique: steady-state kinetics
B1: RPT2 (Arabidopsis thaliana, UniProt Q682S0); chain MATEGKNPINMNSMSSSLARTGQWVFSQDIPTDVVVEVGEANFSLHKFMLVAKSNYIRKLIMESKDSDVTRINLSDIPGGPEIFEKAAKFCYGVNFEITVQNVAALHCAAEFLQMTDKYCDNNLAGRTQDFLSQVALSSLSGAIVVLKSCEILLPISRDLGIVRRCVDVVGAKACNEAMFPCRTPPNWWTEELCILDVDFFSDVVSSMKQRGVKPSSLASAIITYTEKSLRDLVRDHSGRGVKYSDPGDNESDERSQQRDLVQSIVSLLPSDKGLFPVNFLCSLLRCAVFLDTSLTCKNELEKRISVVLEHVSVDDLLIPSFTYDGERLLDLDSVRRIISAFVEKEKNVGVFNGGDFNRGVCSVSLQRVAKTVDSYLAEIATYGDLTISKFNAIANLVPKSARKSDDDLYRAIDIFLKAHPNLDEIEREKVCSSMDPLKLSYDARLHASQNKRLPVNIVLHALYYDQLKLRSGVAEQEERAVVVLPEALKTRSQLQADTTLAKENEALRSELMKMKMYVSDMQKNKNGAGASSSNSSSLVSSKKSKHTFFSSVSKKLGKLNPFKNGSKDTSHIDEDLGGVDITKPRRRRFSIS
B2: enzyme K234A (Methanosarcina mazei, UniProt Q8PVB1); chain MSEQRSVPLREHLLALKPCRHGGLIQETSETYGIPENEILDFSANFNPLGSPFDYPENGLNFEDIIKKSCGKLLEYPDNRYVEFREAAARFVGLGVTPQSIVPGNGSTEIVRLVVESVIEKGDKVLLPWPTFGEYEMQCRITGAEPVCPSQEEVNTLPDEVLEEAKILFICNPNNPTGKLRTREELKVLAERCREHKTLLYVDEAFIELSDPSQSVADLPAENNYVFVMRSLTADFAIPGIRMGFGIAPPAMADILNTARLSWNLGAIANNTGIALLNIEGGIDSPYLKKAREMILKEGETLKAKIDRIRGFEAGEVNVNFILVDVSKFMLNSSELTARLAARGVLVRDCVSFHGLGKNYIRVAVRTEKENDRLIAAIGDVITEWGREQAKNELQHVIEKASEEGIGGRKTCEYYPCHFEGQNCTFCFCPFYPCENEKTGGKWIQSSRGGRVWSCVDCHLVHKKEIAQKILDCLMHEGDTDELVKVAWKEVMEPIL
B3: enzyme A167S/Y136L (Bradyrhizobium diazoefficiens, UniProt Q45222); chain MIQTERAVQQVLEWGRSLTGFADEHAVEAVRGGQYILQRIHPSLRGTSARTGRDPQDETLIVTFYRELALLFWLDDCNDLGLISPEQLAAVEQALGQGVPCALPGFEGCAVLRASLATLAYDRRDYAQLLDDTRCLSAALRAGHAQAVAAERWSYAEYLHNGIDSISYANVFCCLSLLWGLDMATLRARPAFRQVLRLISAIGRLQNDLHGCDKDRSAGEADNAVILLLQRYPAMPVVEFLNDELAGHTRMLHRVMAEERFPAPWGPLIEAMAAIRVQYYRTSTSRYRSDAVRGGQRAPA
B4: enzyme (Cyanidioschyzon merolae, UniProt M1V8C6); chain EPPRDTAATSSHEFTHHVTEKAKDWSGSGTWLQSYIEQGPLAAAIPPQYAPSRSLSRWQAWGSYLFKELGLDGTLERDQNRIFRFYLPVFAWSLHVVNRLQRDERRKQHGVIIGLQCPQGGGKTTLTAALQKLFDLEQRRCVSLSIDDFYLTRREQEALARAFPENPLLGSRGNPGTHDISLALQVLNEVVAAPYPGEHAEVAVPRYDKSAFQGLGDRAPPEQWPLVSRPVDVVFLEGWCLGFRPLALHERPATMDPITLRHLMQVDRFLAEDFSRLYPLLDAFIVIALDGPKLSESLRIVYQWRLEAEQQMRAAGRPAMTDEQVYAFVDKFMPAYKAYLGDLYGGPPLTGNLSRELRVGIDETRSPTRLNPHSELVP
B5: spt (Sphingomonas paucimobilis, UniProt Q93UV0); chain TEAAAQPHALPADAPDIAPERDLLSKFDGLIAERQKLLDSGVTDPFAIVMEQVKSPTEAVIRGKDTILLGTYNYMGMTFDPDVIAAGKEALEKFGSGTNGSRMLNGTFHDHMEVEQALRDFYGTTGAIVFSTGYMANLGIISTLAGKGEYVILDADSHASIYDGCQQGNAEIVRFRHNSVEDLDKRLGRLPKEPAKLVVLEGVYSMLGDIAPLKEMVAVAKKHGAMVLVDEAHSMGFFGPNGRGVYEAQGLEGQIDFVVGTFSKSVGTVGGFVVSNHPKFEAVRLACRPYIFTASLPPSVVATATTSIRKLMTAHEKRERLWSNARALHGGLKAMGFRLGTETCDSAIVAVMLEDQEQAAMMWQALLDGGLYVNMARPPATPAGTFLLRCSICAEHTPAQIQTVLGMFQAAGRAVGVIG
B6: enzyme D423N/R186H/R7G (Gallus gallus, UniProt A0A8V0ZKC1); chain MAGPSGGARRLLLPLRLRPPPPIGPEPPCRTGSSAAAAAAGPARLKGPAELPGPGLLRTFVWLFLRGYLLHTHRLQLMSRRIYGPIWKSTFGHYQNINIGSPVVLEQLLRQEGKYPMRSDMALWKEHRDTRRLPYGPFTEEGERWYRLRQVLNKRLLKPSEAVLYADAIGEVVSDLMVRLRDERSHSPSGVLVGDVANLLYRFALEGISYILFETRIGCLKQQVPPETQHFIDSINLMFKNSIFATVLPRWSRKVLPFWDRYLDSWDTIFAFGKRLIDRKMKELEGHVEKGKEVSQGYLSYLLASGHLSLDEVYGSVAELLLAGVDTTSNTLCWALYHLSRDLGIQDTLYQELKAVVPPDRFPGAEDIPKMPMLRAVIKETLRVYPVVPTNARVFYEKDIVIGDYLFPKNTLFVLAHYAMSHNETYFPEPERFLPQRWLRGHGSPHHPFSSIPFGYGVRACVGRRIAELEMHLALARIIQAYEVRPDPRGVEVTSVSRIVLVADKPINLEFIARPGAP
B7: enzyme C93G/Y157F (Mus musculus, UniProt P60334); chain MERTELLKPRTLADLIRILHELFAGDEVNVEEVQAVLEAYESNPAEWALYAKFDQYRYTRNLVDQGNGKFNLMILCWGEGHGSSIHDHTDSHGFLKLLQGNLKETLFDWPDKKSNEMIKKSERTLRENQCAYINDSIGLHRVENVSHTEPAVSLHLFSPPFDTCHAFDQRTGHKNKVTMTFHSKFGIRTPFTTSGSLENN
B8: enzyme (UniProt A0A063Y6V3); chain MNTRVAIIGAGPCGLAQLRAFQSAAAKGAAIPELVCFEKQSDWGGMWNYTWRTGVDEHGEPVHGSMYRYLWSNGPKECLEFADYTFDEHFGRPIGSYPPREVLWDYIKGRVEKAGVRDYIRFNTAVRQVSYDETSGLFSVTVQDHSNNRVYTETFDYVVNACGHFSTPNTPYFEGFERFGGRVLHAHDFRDALEFKDKDILVVGSSYSAEDIGSQCYKYGARSITSCYRSAPMGYQWPQNWEEKPLLQRVDSDTAWFADGSHKRIDAIILCTGYQHHFPFLPDSLRLITENRLWPLKLYKGIFWEDNPKFLYLGMQDQWYSFNMFDAQAWYARDVILGRISLPGKAEMQAENQAWREREEKLQTAQEMFEFQGSYIQHLIDATDYPSFDIQAVNETFLAWKHDKYEDIMGYRNKCYRSLMTGTLATPHHTPWLDALDDSLEAYLQETPRLKSAV
B9: enzyme (Sargassum horneri, UniProt A0A097IUG6); chain SPMAVASPSGFQKAMKTTLSSLGIDKATGITKPTTIYRNLPYPEVFKHEEQNKEGEVTKNGTFCVSTGQFTGRSPKDKYFVKQAPSDGKLDWGKINKGVASEVYKNIYDKAVKHYNTNVDKMYVFDGYCGTSPKSRKNVRIITELAWQHHFAKNMFIRPETEEEVANFVPDFTIINACKIVNEDYKELGLNSEVAVVFNVEESKAVITGTWYGGEMKKGIFSMMNYWLPLDGVMSMHCSANKGKDGDTALFFGLSGTGKTTLSADPARYLIGDDEHGWDDDGIFNFEGGCYAKTVNLSRENEPEIYDAIKRDALLENVIIKKNGEPDYADVSRTENTRVSYPIYHIDNYEPSGMGDHPKSIVFLTCDAFGVLPPVSRLSPGQAMYHFLSGYTAKVAGTERGVTEPTPNFSAGFGAAFLTLHPTVYADLLQEKLDKHGTQCFLINTGWTGGGYGVGKRMSIKATRACVDAVLDGSINKTKFTKEPVFGFEVPQELPNVPSKVLNPREAWSDKASYDATRTKLGDMFKNNFTKFVKPGMTDYTAYGPK
Sequence of UniProt P09546 (whole entry, looked up): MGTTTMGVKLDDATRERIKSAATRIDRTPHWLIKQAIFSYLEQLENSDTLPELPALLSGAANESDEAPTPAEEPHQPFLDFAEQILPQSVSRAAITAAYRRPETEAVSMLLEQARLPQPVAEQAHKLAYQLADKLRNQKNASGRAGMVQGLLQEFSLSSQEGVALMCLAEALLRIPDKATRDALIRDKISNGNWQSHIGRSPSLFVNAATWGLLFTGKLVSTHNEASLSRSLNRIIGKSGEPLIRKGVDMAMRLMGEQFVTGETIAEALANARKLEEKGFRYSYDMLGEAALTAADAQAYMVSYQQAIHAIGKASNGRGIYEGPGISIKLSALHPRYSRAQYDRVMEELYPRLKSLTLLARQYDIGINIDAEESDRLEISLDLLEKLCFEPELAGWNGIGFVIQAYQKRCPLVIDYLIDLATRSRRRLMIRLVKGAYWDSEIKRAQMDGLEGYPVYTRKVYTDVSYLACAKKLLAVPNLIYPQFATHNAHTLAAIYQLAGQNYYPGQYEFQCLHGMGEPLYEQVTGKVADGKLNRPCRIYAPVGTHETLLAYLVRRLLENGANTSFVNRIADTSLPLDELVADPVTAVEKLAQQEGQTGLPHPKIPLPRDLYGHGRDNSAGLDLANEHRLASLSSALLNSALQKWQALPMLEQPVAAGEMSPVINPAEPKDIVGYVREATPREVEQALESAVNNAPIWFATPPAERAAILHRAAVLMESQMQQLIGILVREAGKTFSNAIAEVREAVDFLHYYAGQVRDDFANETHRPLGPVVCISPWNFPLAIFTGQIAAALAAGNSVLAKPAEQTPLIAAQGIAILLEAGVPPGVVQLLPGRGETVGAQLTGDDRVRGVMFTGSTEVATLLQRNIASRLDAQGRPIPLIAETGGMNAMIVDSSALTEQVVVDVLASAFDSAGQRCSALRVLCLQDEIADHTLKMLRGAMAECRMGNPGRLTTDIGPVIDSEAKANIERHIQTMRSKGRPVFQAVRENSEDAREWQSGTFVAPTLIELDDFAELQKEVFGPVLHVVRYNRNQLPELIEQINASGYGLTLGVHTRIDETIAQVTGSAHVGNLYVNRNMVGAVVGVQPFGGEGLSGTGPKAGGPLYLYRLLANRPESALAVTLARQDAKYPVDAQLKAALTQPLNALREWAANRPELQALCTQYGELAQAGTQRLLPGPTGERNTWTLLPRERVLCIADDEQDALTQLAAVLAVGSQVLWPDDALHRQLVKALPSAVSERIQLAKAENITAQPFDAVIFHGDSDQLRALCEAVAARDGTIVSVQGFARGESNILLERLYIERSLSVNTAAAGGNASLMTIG
Sequence of UniProt P78804 (whole entry, looked up): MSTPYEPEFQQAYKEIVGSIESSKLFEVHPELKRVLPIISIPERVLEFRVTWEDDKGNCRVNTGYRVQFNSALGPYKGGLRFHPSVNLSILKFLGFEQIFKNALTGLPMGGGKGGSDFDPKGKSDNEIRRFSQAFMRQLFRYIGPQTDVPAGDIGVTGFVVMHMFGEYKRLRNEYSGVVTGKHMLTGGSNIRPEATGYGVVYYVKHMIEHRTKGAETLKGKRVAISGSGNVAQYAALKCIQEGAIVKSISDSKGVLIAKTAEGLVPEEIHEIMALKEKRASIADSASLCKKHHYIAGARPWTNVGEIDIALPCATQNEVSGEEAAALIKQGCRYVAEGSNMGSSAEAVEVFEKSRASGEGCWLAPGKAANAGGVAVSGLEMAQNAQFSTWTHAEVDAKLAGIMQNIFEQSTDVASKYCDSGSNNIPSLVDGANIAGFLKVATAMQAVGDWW

HNL C81L/E79H/G176S/H103V/K236M/N104A/T11G (Hevea brasiliensis)
kcat (CC(=O)Oc1ccc([N+](=O)[O-])cc1; pH 7.2, 21 °C): 0.00983 ± 0.00233 s⁻¹

B1 (RPT2)
kcat (Nc1nc2c(ncn2[C@@H]2O[C@H](COP(=O)(O)OP(=O)(O)OP(=O)(O)O)[C@@H](O)[C@H]2O)c(=O)[nH]1; pH 7.5, 30 °C): 0.0478 s⁻¹

enzyme (Thermothielavioides terrestris, UniProt G2R650)
kcat (Oc1ccc(/C=C/c2cc(O)cc(O)c2)cc1; pH 8, 45 °C): 0.869 ± 0.024 s⁻¹

gdh E198G/N97F (Bacillus subtilis)
kcat (NC(=O)c1ccc[n+]([C@@H]2O[C@H](COP(=O)(O)OP(=O)(O)OC[C@H]3O[C@@H](n4cnc5c(N)ncnc54)[C@H](O)[C@@H]3O)[C@@H](O)[C@H]2O)c1; pH 7, 55 °C): 11.9 ± 0.298 s⁻¹

enzyme (Bacteroides ovatus, UniProt A0ABU3IP51)
kcat (O=[N+]([O-])c1ccc(O[C@H]2O[C@H](CO)[C@@H](O)[C@H](O)[C@H]2O)cc1; pH 6.6): 51.2 ± 2.8 s⁻¹

enzyme (Cryptosporidium parvum, UniProt Q8IS93)
kcat (NC(=O)C1=CN([C@@H]2O[C@H](COP(=O)(O)OP(=O)(O)OC[C@H]3O[C@@H](n4cnc5c(N)ncnc54)[C@H](OP(=O)(O)O)[C@@H]3O)[C@@H](O)[C@H]2O)C=CC1; pH 7.4, with: DTNB 4 mM): 56.6 ± 3.36 s⁻¹

B2 (enzyme K234A)
kcat (Nc1ncnc2c1ncn2[C@@H]1O[C@H](COP(=O)(O)OP(=O)(O)OP(=O)(O)O)[C@@H](O)[C@H]1O; pH 8.5, 25 °C, apparent, anoxic, with: L-Thr 10 mM): 0.01 ± 0.0003 s⁻¹

enzyme (Treponema denticola, UniProt Q73LY9)
kcat (CC(=O)N[C@H]1[C@H](Oc2ccc([N+](=O)[O-])cc2)O[C@H](CO)[C@@H](O[C@@H]2O[C@H](CO)[C@H](O)[C@H](O)[C@H]2O)[C@@H]1O; pH 6, 40 °C): 3.3 ± 0.2 s⁻¹

B3 (enzyme A167S/Y136L)
kcat (C=C1CC[C@@H]2C(C)(C)CCC[C@@]2(C)[C@@H]1CC/C(C)=C/COP(=O)(O)OP(=O)(O)O): 0.05 ± 0.00467 s⁻¹

B4 (enzyme)
kcat (O=C(O)[C@H](O)CO; pH 7.8, 30 °C): 19.4 ± 0.86 s⁻¹

B5 (spt)
kcat (CCCCCCCCCCCCCCCC(=O)SCCNC(=O)CCNC(=O)[C@H](O)C(C)(C)COP(=O)(O)OP(=O)(O)OC[C@H]1O[C@@H](n2cnc3c(N)ncnc32)[C@H](O)[C@@H]1OP(=O)(O)O; with: PLP): 0.85 ± 0.03 s⁻¹

enzyme (Schizosaccharomyces pombe, UniProt P78804)
kcat (NC(=O)C1=CN([C@@H]2O[C@H](COP(=O)(O)OP(=O)(O)OC[C@H]3O[C@@H](n4cnc5c(N)ncnc54)[C@H](OP(=O)(O)O)[C@@H]3O)[C@@H](O)[C@H]2O)C=CC1; pH 7, 30 °C, apparent): 54 ± 2 s⁻¹

B6 (enzyme D423N/R186H/R7G)
kcat (C=C1CC[C@H](O)C/C1=C/C=C1\CCC[C@]2(C)[C@@H]([C@H](C)CCCC(C)C)CC[C@@H]12; pH 7.4, 37 °C, not purified): 0.0108 ± 0.00106 s⁻¹

enzyme (UniProt F0RRL2)
kcat (OC[C@H]1O[C@@](CO)(O[C@H]2O[C@H](CO)[C@@H](O)[C@H](O)[C@H]2O)[C@@H](O)[C@@H]1O; pH 5.5, 37 °C, apparent): 95.1 ± 6.4 s⁻¹

B7 (enzyme C93G/Y157F)
kcat (N[C@@H](CS)C(=O)O; pH 7.5, 37 °C): > 0.88 s⁻¹

B8 (enzyme)
kcat (NC(=O)C1=CN([C@@H]2O[C@H](COP(=O)(O)OP(=O)(O)OC[C@H]3O[C@@H](n4cnc5c(N)ncnc54)[C@H](OP(=O)(O)O)[C@@H]3O)[C@@H](O)[C@H]2O)C=CC1; pH 7, 30 °C, cofactor varied): 0.24 ± 0.019 s⁻¹

putA (Escherichia coli, UniProt P09546)
kcat (COC1=C(OC)C(=O)C(C/C=C(\C)CCC=C(C)C)=C(C)C1=O; pH 7.4, 20 °C, with: proline 200 mM): 1.4 ± 0.1 s⁻¹

enzyme (Acinetobacter baumannii, UniProt A0A5P1UDB1)
kcat (O=C(O)c1ccccc1O; pH 7.5, 37 °C, apparent): 0.023 ± 0.0009 s⁻¹

B9 (enzyme)
kcat (C=C(OP(=O)(O)O)C(=O)O; pH 6.5, 25 °C, with: 2 mM ADP): 41.4 ± 1.2 s⁻¹

A few entries again:
putA (Escherichia coli, UniProt P09546)
kcat (COC1=C(OC)C(=O)C(C/C=C(\C)CCC=C(C)C)=C(C)C1=O; pH 7.4, 20 °C, with: proline 200 mM): 1.4 ± 0.1 s⁻¹

B5 (spt)
kcat (CCCCCCCCCCCCCCCC(=O)SCCNC(=O)CCNC(=O)[C@H](O)C(C)(C)COP(=O)(O)OP(=O)(O)OC[C@H]1O[C@@H](n2cnc3c(N)ncnc32)[C@H](O)[C@@H]1OP(=O)(O)O; with: PLP): 0.85 ± 0.03 s⁻¹

enzyme (Treponema denticola, UniProt Q73LY9)
kcat (CC(=O)N[C@H]1[C@H](Oc2ccc([N+](=O)[O-])cc2)O[C@H](CO)[C@@H](O[C@@H]2O[C@H](CO)[C@H](O)[C@H](O)[C@H]2O)[C@@H]1O; pH 6, 40 °C): 3.3 ± 0.2 s⁻¹
